Experimental data from different studies.
Every numbered part comes from another study and shows a few of its results, in no order.

Study 1 — method: protein-binding microarray; molecule type: double-stranded DNA, one strand shown; medium: in vitro; tested at: 250 nM; notes: 60-bp whole probe; with: salmon DNA 0.4 mg/ml; baseline: random background probes; direction: higher = stronger binding; constant ends, left off below: GCCTAGCAC … GTCTTGATTCGCTTGACGCTGCTG
Target: Interferon regulatory factor 7, full length, phosphomimetic (IRF7, Homo sapiens, UniProt Q92985, residues 1-503, S101K/S471D/S472D/S475D/S476D/S477D/S483D/S484D/S487D)
Chain of UniProt Q92985 (whole entry, unmodified, looked up): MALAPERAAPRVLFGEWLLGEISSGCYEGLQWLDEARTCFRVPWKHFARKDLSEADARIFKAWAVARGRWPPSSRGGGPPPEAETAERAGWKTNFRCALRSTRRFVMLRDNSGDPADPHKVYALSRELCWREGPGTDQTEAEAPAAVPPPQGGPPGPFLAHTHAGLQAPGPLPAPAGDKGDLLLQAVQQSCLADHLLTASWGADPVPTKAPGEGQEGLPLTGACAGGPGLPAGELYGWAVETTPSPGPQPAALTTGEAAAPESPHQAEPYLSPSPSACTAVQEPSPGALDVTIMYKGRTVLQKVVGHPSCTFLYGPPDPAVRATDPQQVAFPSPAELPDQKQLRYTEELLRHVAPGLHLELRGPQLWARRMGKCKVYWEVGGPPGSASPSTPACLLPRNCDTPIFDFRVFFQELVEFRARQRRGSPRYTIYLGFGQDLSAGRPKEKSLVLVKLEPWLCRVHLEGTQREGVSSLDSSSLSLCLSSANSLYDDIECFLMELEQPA
Strand | log fluorescence [z-score]
TCAGCTTTCTTTTATGCACTGTGCTAG | 0.345
TTAGAACTAAGTATCGATTAGTGCTAG | 1.09
GACGATATCAGACTCGAGACGTGCTAG | 0.357
GACGATTTCAGAATCGAGACGTGCTAG | 0.371
TTAGGACTTCTACTGCTTTAGTGCTAG | 0.0652
GCTTCTCCTTGGAATAGATCGTGCTAG | 2.3
TTAGGTCACCTTTTCCTTTAGTGCTAG | 1.19
TTAGGGTTCCTTTTCCTTTAGTGCTAG | 1.93
ACCTGAGTCCCTATCTCCTCGTGCTAG | -0.15
GAAGGTATCGACACTGGGGACGTGCTA | -0.362
TTAGGTATCGGGTATCGATTAGTGCTA | 1.56
TTAGAACTAGGGTTTCGATTAGTGCTA | 6.51
TTAGGTATCGGGTTTCAGTTAGTGCTA | 2.74
TTAGGTTCTCTTTTCCTTTAGTGCTAG | 2.86
TGGAGAGTAGCTTTCTGAGGGTGCTAG | -1.09
TTAGCTTTCAGTTCCGATTAGTGCTAG | 0.892
TTTACTTTCTGAATGCCCTCGTGCTAG | 1.46
TTAGGACTGGACACTTGGTTAGTGCTA | -0.718
TTAGATTTCAGTTCCGATGAGTGCTAG | 0.971
GACGGACTGGGACTCGGGACGTGCTAG | 0.0456
TTAGGTTTCGGGAATCGGTTAGTGCTA | 3.64
TTAGAACTGGGGTATCCATTAGTGCTA | -0.525
TGCACTCTTTACATGGGTTTGTGCTAG | 0.373
CTCCTGCAGCTGCCCTCCTGGTGCTAG | -0.52
CTGTGTTTCCTTGTACGTCGGTGCTAG | 1.07

Study 2 — method: RNA Bind-n-Seq; molecule type: RNA; medium: in vitro; tested at: 200 nM; notes: whole 134-nt RNA, ends assumed; with: 150 mM KCl; baseline: input library; direction: higher = stronger binding
Target: Fragile X messenger ribonucleoprotein 1, C-terminal low-complexity region (Fmr1, Mus musculus, UniProt P35922)
Constant ends, left off below: GGGAGUUCUACAGUCCGACGAUC … UGGAAUUCUCGGGUGUCAAGG
Strand | log2 enrichment
UGGGAGGUGGAUUUUGUUUAUUUUUUUAGCUCAUUUCCAGGGGUGGGAAUUUUUUUUUAAUAUGUGUCAUGAAUAUAGUUGUUUUUGAAA | 0.284
CUCAAGUCCUGUGCUACACAUCGUAUGUACCGAAUCGGGGCGGCGGGGCGGGGAAAGUAUUAUGUUACGCCGUUCGGAUCUGCACUUCCA | 1.03
UGGCCCUGGUGGCAUGCGGGGAGGAAGAGGUUGCCUCAUGGAUCGUGGUGGUCCCGGUGGAAUGUUCAGAGGUGGCCGUGGUGGAGACAG | -0.204
GUCCUGUGCUACACAUCGUAUGUACCGAAUCGGGAAAAAGGGAAAAAGGGGAAAAAGGGAAAGUAUUAUGUUACGCCGUUCGGAUCUGCA | -0.126
UGGCCCUGGUGGCAUGCGGGGAGGAAGAGGUGGCCUCAUGGAUCGUGGAGGUCCCGGUGGAAUGUUCAGAGGUGGCCGUGGUGGAGACAG | 0.374
UCCUCAAGUCCUGUGCUACACAUCGUAUGUACCGAAUCGGUGGUGGGUGGGAAAGUAUUAUGUUACGCCGUUCGGAUCUGCACUUCCAGC | 0.169
CUCAAGUCCUGUGCUACACAUCGUAUGUACCGAAUCGGAAGGGAAGGGAAGGGAAAGUAUUAUGUUACGCCGUUCGGAUCUGCACUUCCA | 0.352
ACCAUGCAGGUGGGCAUCUUUGGGAAGUGGGGCAAGGGGGGGAUAGGGAGGGGGGUAACACUUUGGAAACAGGUGGUCCCAGGUCGUUUC | 0.708
UGGCCCUGGUGGCAUGCGGGGAGGAAGUGGUGGCCUCAUGGAUCGUGGUGGUCCCGGUGGAAUGUUCAGAGGUGGCCGUGGUGGAGACAG | 0.177
CACAGACAACACGCACCCACACAGACACAGAGGGAAGGGGUUGGGAUGGGGACAGGGUGCACAGCAGGGCGGGGUAGGCCCCCAGCCCCU | 1.23
UAACUUUAGAGGAGGAUCUGAUGGAUAUGGCAGUGGACGUGGAUUUGGGGAUGGCUAUAAUGGGUAUGGAGGAGGACAUGGAGGUGGCAA | 0.282
UGGCCCUGGUGGCAUGCGGGGAGGAAGAGGUGGCCUCAUGGAUCGUGGUGGUCCCGGUGGAAUGUUCAGAGGUGGCCGUGGUGGACACAG | -0.194
AAGUCCUGUGCUACACAUCGUAUGUACCGAAUCGGGUUUGGGAAAAAAAGGGAGGGAAAGUAUUAUGUUACGCCGUUCGGAUCUGCACUU | 0.865
AGUCCUGUGCUACACAUCGUAUGUACCGAAUCGGGGAAAAGGAAAAGGGGAAAAGGGAAAGUAUUAUGUUACGCCGUUCGGAUCUGCACU | 0.0685

Study 3 — method: competition protein-binding microarray; molecule type: double-stranded DNA, one strand shown; medium: in vitro; tested at: 2 µM; with: Pho4 competitor, 0.05 µM; direction: higher = stronger binding; constant ends, left off below: … GTCTTGATTCGCTTGACGCTGCTG
Target: Centromere-binding protein 1, full length, His-tagged (CBF1, Saccharomyces cerevisiae, UniProt P17106, residues 1-351)
Chain of UniProt P17106 (whole entry, looked up): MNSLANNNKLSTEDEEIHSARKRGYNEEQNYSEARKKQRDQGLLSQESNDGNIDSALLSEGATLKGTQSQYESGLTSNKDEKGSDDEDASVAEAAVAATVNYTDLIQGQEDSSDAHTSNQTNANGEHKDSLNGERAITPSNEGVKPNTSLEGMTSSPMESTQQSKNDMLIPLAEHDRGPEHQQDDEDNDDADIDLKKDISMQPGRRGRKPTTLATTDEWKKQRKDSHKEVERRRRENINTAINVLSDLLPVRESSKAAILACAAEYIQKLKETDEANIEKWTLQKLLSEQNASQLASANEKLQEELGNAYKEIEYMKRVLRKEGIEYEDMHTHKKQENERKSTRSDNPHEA
Notes: whole 60-bp probe, lowest competitor level
Strand | fluorescence intensity [a.u.]
AAAGCGGTAATTTGAAATGTGGGTGCAGATATCTAT | 74.7
CTTTCCCGATCTTGTCACTGGACTTTAGCACATTTG | 94.1
CATACCCAACCTTTTCACGTGTTGTAAGATATTTGT | 997
GTCTTGTCTCATTGATGAGTGGGTGTCCCCACTTCA | 64.5
CAACCGCATCGGCTCAACCTGATCTTGCAATTAGCA | 68.3
AGAAGGAAGTAACTGCAGGTGAAGCACAGGACGAAG | 88.3
AACTTTCTAGTCGACCACGTGAGTCCGCCCAGTCTT | 1860
AGGTCGTCGAGGACGCCCGCGACGCAGTCAAACAGG | 57.8
TGCGCAACAACTTTTCACGTGGCCTTATGTCTAGAA | 789
CTTTCCCGATCTTGGCTCGTGGGTGTAGCACATTTG | 76.2
CATATGAATTTGCTCTTCTAGTAACTTTGTACACAG | 216
GCCCGGTCAAGTACTCACGTTCTGCTGTAGGTGACG | 102
CTAACGAAGGTTTTTCACGTGAAGTACAAGCCAAGT | 561
TGTACCACCTCTTTGAACGTGACAAAGAATGGTTAC | 433
GTCTTGTCTCATTGTCACGCCACTTTCCCCACTTCA | 246
AAATGGGATAACCGTCACGTGACTCGCACTAGGGGC | 16800
ATAATAAAGAATGGTGATGTGATGGTATTCAACTTG | 96.7
GCACCGTAATCCATTAATGTGTCGCAGGCTTTCACC | 78.6
AAATTACTAAGTTGTTTTGTGGGTGACGCCGTATGA | 73.5
GTAATACAGAGGCTTCATGTGACGGGAGAAAGGAGA | 229
AAAAGAATTATTTGTCATGTGATTGCCATCCTACTT | 3110
AGAAATGTTCTCCTCCACGTGGATTCGTACCGTTGT | 473
CTTTTTTTTCTCTCGCCCGTGCCGATCCGTCTTCGA | 75.9
TTTAGGTAATTTGACACCGTGCCGAAATGGCTTGGC | 75.3
CAGAAGGACTATTCACACGTGCCAGGCAAATTTTTT | 1480

Study 4 — method: RNA Bind-n-Seq; molecule type: RNA; medium: in vitro; tested at: 365 nM; baseline: no-protein control; direction: higher = stronger binding
Target: RNA binding protein fox-1 homolog 2, RRM domain, GST-SBP tag (RBFOX2, Homo sapiens, UniProt O43251-10, residues 100-194)
Notes: natural RNA segment, single round, ends assumed
Constant ends, left off below: GGGAGUUCUACAGUCCGACGAUC … UGGAAUUCUCGGGUGCCAA
Residues (chain): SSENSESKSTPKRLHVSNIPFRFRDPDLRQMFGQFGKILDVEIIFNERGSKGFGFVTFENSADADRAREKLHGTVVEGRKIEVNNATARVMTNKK
Strand | RBNS enrichment (R)
GAACUUUCACAAUGCUUUCCUAGGUAGGACCUGGCAGUUUGGCAGUGCCUUCAGUUUAGCAUUGCUAUAAAAUGAACCCUGAAUUAGCGAAACAGUGUAACAUUAUUCUG | 0.24
GCUUUCCAAAGAAGGACCUAAAACACACCAAGAUUGUCUUCUACAGGAAUUGCUGGGCAGGUCUCCGACUAAAGGUCUUAUGAUGAAAAGGAAGAAACAAGCCCCCAACA | 0.31
UGAGUUGGGAGGGGAAUGUUCCCACUCAGAUCCUGACAGGGAAGAGGAGGAGAUGAGAGACUCUGGCAUGAUCUUUUUUUUGUCCCACUUGGUGGGGCCAGGGUCCUCUC | 31.9
UCAGGGCAGGGACCAAGCGUGCACAUUCUUUCCAUUUCAUAGUUGAUACUUUUAUAUGUACUGCUGCUGCUGCUCUUUGACAUUGCCUGCCUGCCUGGCACCUUUUCAUU | 0.362
UUCCCAAGCCACAGCCCUUUUGUCUCGGGGAACUCCCUUCUUCACAGAGAAGGAGGUGGGGGCUGUGAAUUGGUUGUUAGUUUCUGAAUUUUACCAAAUAAAGUAGAAUC | 0.364
AGCUCUAAAGAUUUCAAAUAGUGGCAGACAGUGUCUUCUGAAUGUAAGUUUUGAGAAAUACGAGUCUGUCAGAGCGGCCAUAAGCCAUAAAGAGUCAAUCUCUUAAUUAU | 0.336
GGUCUUUUGUUCAAUAUUUUACAAUUUAGACUUCUGUCCAACACUAAUUUAUUUUGUCUUGAGUUGUACUGCGAGAGAAGAAUAUGGGGUUUUGUAUGCCCGUGUUCCUU | 0.717
GUCCCAACGUUCUAGCACCCCCCUCUUCUCCUUUCUCUGUCCCCCAUUUUCCAGGGGGUUUAUGGUCAGGGCUCCCCAACCUGAGUUGGGCUACUUCCAAGGGCAGCCAG | 0.679
CUACAUACCUUUCCCAUCACACAUGAAAAAAGAAAAAAACAAAUCUGCUCAGAGUGCCUCUGGUUUCUUUUCAAAUUGUGGGGGGAAGGAUUAAAAACUUCAAAUGAUGG | 0.451
GGACUGGUGCUAACCACCUGCCAUCAUGAGGAUGUGUGCUAGAGUGUGGGACCCUGGCCAAGUGCAGGAAUGGGCCAUGCCGUCUCACCCACAGUAUCACACGUGGAACC | 3
AGAAGGCGUUGAGUAGACAGACUGUUGAGAGGCCACAGAGUGCACUUGGAAAAACUCAUUUCUGUGCUGCAAAGCAAUGGUGGGGAGGCGCAGUGCCGCGACUGCUGUAG | 0.634
UUUCCUGAUUACUAGAAGCUGACCUCUGCUAUCCUGGGUAAGAACGCCCUGAGUACGGGUACCAUGCUCUGUUUACUUUAGGAUCUCCAGCACCAAGCAAGUGCCUGGCA | 0.765
